Assay results gathered from unrelated publications.
Every numbered part comes from another study and shows a few of its results, in no order. Substitutions count along the parent as printed.

Block 1
Target: ABI1, truncated, D143A, DHFR fusion (Arabidopsis thaliana)
Technique: DHFR PCA, deep sequencing
Sample: yeast
Setting: methotrexate growth selection, single substitutions
Added: (+)-ABA 1.4 µM
Baseline: wild-type fitted maximum
Direction: higher = stronger binding
Starting sequence: PYL1, truncated, DHFR fusion (Arabidopsis thaliana); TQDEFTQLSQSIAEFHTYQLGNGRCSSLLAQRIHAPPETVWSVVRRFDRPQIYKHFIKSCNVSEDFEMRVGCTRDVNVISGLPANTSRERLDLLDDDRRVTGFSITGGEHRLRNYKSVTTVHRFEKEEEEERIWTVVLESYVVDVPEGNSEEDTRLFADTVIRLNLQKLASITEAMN; partner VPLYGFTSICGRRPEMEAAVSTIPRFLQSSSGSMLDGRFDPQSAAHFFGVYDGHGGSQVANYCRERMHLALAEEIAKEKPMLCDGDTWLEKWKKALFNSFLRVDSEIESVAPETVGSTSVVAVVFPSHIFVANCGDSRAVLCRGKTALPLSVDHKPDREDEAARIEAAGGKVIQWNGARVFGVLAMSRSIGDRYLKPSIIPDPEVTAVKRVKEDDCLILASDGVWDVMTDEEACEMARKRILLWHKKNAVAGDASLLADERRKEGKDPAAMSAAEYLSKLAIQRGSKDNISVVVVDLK
Substitution	relative binding score
R74H	2.48%
R24S	34.2%
V62D	7%
Q10I	22.7%
M176V	40.8%
T106I	99.5%
V143R	-4.12%
L29G	4.73%
G148L	-4.86%
D96Q	-2.88%
E64V	32.3%
E14H	8.94%
L138V	4.32%
K168T	56%
T135Y	-8.95%
Q51H	48.3%
S171C	36.6%
Y53T	-0.33%

Block 2
Target: Sal-like protein 4, full length isoform B (SALL4, Homo sapiens, UniProt Q9UJQ4-2, residues 1-616)
Technique: universal PBM
Form: double-stranded DNA, one strand shown
Sample: in vitro
Tested at: not given
Setting: 8-mer, flanks averaged, mean of replicates
Direction: higher = stronger binding
Oligonucleotide	E-score
AATAGAAT	0.28
ATCTAAAT	0.264
AGATAACG	0.139
TAGTCAGA	-0.0155
AACGAAAA	0.272
ATAAGCGC	-0.0509
TAGACACA	0.137
GGTTGCCA	-0.174
CGGCGGCC	-0.323
CGCCGGAA	-0.263
AATTCACT	0.201
ACTAGTAA	0.288
CATTAAGA	0.166
CCCCATTC	-0.132
ATTTAACC	0.164
TATGTGCA	0.228
CGTCGGGA	-0.142
TTCCACAA	0.135
CTATGCAC	-0.0319
CATTCGCC	-0.168
GAGGCGGC	-0.265
CGATCCGA	-0.223
AGCAGCAC	-0.286
CTTACAGA	-0.0795
CGAGACAG	-0.191

Block 3
Target: Ras GTPase-activating protein-binding protein 1, C-terminal RGG region (G3BP1, Homo sapiens, UniProt Q13283)
Chain of UniProt Q13283 (whole entry, looked up): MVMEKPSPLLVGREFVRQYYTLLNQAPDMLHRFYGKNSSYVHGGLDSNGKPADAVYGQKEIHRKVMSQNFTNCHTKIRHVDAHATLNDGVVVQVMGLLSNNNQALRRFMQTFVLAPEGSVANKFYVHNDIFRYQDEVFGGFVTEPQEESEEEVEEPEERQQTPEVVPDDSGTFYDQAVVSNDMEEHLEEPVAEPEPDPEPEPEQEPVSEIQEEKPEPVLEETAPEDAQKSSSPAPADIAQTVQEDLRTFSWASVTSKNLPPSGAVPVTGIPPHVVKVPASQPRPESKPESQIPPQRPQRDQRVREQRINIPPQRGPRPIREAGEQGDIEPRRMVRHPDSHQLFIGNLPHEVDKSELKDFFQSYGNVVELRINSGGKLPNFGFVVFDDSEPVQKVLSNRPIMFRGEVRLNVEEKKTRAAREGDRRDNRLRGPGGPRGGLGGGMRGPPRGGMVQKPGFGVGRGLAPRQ
Technique: RNA Bind-n-Seq
Form: RNA
Sample: in vitro
Tested at: 1 µM
Setting: whole 134-nt RNA, ends assumed
Added: 150 mM KCl
Baseline: input library
Direction: higher = stronger binding
All sequences stand within: GGGAGUUCUACAGUCCGACGAUC … UGGAAUUCUCGGGUGUCAAGG
Oligonucleotide	log2 enrichment
UCAAGUCCUGUGCUACACAUCGUAUGUACCGAAUCGGUUUGGAAAAAAAGGAGGAAAGUAUUAUGUUACGCCGUUCGGAUCUGCACUUCC	-1.33
CUCAAGUCCUGUGCUACACAUCGUAUGUACCGAAUCGGGGAGGGGAGGGGAGGAAAGUAUUAUGUUACGCCGUUCGGAUCUGCACUUCCA	1.07
UGCUGGAGUGGCAGAAGACUUUUGAGGAGAAGCUCACGCCGUUGCUGAGUGUGCGGGAGUCACUCUCAGAGGAAGAGGCCCAGAAGAUGG	-1.53
UGGGAGGUGGAUUUUGUUUAUUUUUUUAGCUCAUUUCCAGGGGUGGGAAUUUUAUUUUAAUAUGUGUCAUGAAUAAAGUUGUUUUUGAAA	3.35
GAAAGAAGUAAAAACAAAUGGAAAUGCUUCGGAUAGUGGCAGGGGUGGGGGUUGCUAAGGAAAGGGUGGGAUGGGAGUGGGUAAAGAGUU	1.56
UGGGAGGUGGAUUUUGUUUAUUUUUUUAGCUCAUUUCCAGGGGUGGGAAUUUUUUUUUAAUACGUGUCAUGAAUAAAGUUGUUUUUGAAA	3.3
UCAAGUCCUGUGCUACACAUCGUAUGUACCGAAUCGGCCCGGGCCCGGCCCGGGAAAGUAUUAUGUUACGCCGUUCGGAUCUGCACUUCC	-1.62
GUCCUGUGCUACACAUCGUAUGUACCGAAUCGGGAAAAAGGGAAAAAGGAAAAAGGGGAAAGUAUUAUGUUACGCCGUUCGGAUCUGCAC	-1.16
ACCAUGCAGGUGGGCAUCAUUGGGAAGUGGGGCAAGGGGGGGAUAGGGAGGGGGGUAACACUUUGGGAACAGGUGGUCCCAGGUCGUUUC	-1.18
AAGUCCUGUGCUACACAUCGUAUGUACCGAAUCAAACCCAAAUUUAAACCCCCAAAAAAGUAUUAUGUUACGCCGUUCGGAUCUGCACUU	-1.04
GUCCUGUGCUACACAUCGUAUGUACCGAAUCGGGUUUUUUGGUUUUUUGGUUUUUUGGAAAGUAUUAUGUUACGCCGUUCGGAUCUGCAC	-1.5
UAACCUUAGAGGAGGAUCUGAUGGAUAUGGCAGUGGACGUGGAUUUGGGGAUGGCUAUAAUGGGUAUGGAGGAGGACCUGGAGGUGGCAA	-0.743
GUCCUGUGCUACACAUCGUAUGUACCGAAUCGGGGAAAAGGGGAAAAGGGAAAAGGGGAAAGUAUUAUGUUACGCCGUUCGGAUCUGCAC	0.422
AGUCCUGUGCUACACAUCGUAUGUACCGAAUCAAAUUUAAAUUUUUUUAAAUUUAAAAAAGUAUUAUGUUACGCCGUUCGGAUCUGCACU	-2.89

Block 4
Target: RING finger protein unkempt homolog, zinc fingers 1-6, GST-SBP tag (UNK, Homo sapiens, UniProt Q9C0B0, residues 30-357)
Chain of UniProt Q9C0B0 (30-357, looked up): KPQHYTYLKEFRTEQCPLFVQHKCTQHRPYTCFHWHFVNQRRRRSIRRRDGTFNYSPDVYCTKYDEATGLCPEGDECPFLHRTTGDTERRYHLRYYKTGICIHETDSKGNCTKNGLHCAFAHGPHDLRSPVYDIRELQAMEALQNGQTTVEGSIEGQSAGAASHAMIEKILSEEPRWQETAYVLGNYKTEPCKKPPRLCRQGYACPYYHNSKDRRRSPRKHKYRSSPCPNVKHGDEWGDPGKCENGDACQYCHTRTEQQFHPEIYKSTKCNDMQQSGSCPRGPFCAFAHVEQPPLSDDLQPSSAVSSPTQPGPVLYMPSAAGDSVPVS
Technique: RNA Bind-n-Seq
Form: RNA
Sample: in vitro
Tested at: not given
Setting: RNA with constant flanks, human and mouse sites, ends assumed
Baseline: input RNA pool
Direction: higher = stronger binding
All sequences stand within: GGGAGUUCUACAGUCCGACGAUC … CAACAGAGGAUUGAGCAUCA
Oligonucleotide	bound/input enrichment [ratio]
AAAGGGACUCAGAAGAUGACCCGCACCCCACGGAGUUCUGGGGGUGUGCCAAGGUCUUCUGGUAAACCUCACAAACACCUGCCUCCUGCAGCUCUGCAUCUGAUUGCCUAUUACAAAGAA	0.144
CCCACCUUGGAACAUAGUAGCUUGUUCAGUGGUUCUUACUCCAGCCUUUCUCCAAACCCUCUUAAUUCUAGAGCAGUUGAAGACAUCUCUUCAUCGAGGACUAACCCCUACAGUUAUGCA	0.508
CACCACUUCUAUGAUUUUGAAAGAGAUGCAUAUCUUUUGCAACGAAUGGAAGAAUUUAUUGGAACAGUAAGAGGUAAAGCAAUGAAAAAAUGGGUUGAAUCCAUCACUAAAAUAAUCCAA	0.199
CGGAACUGCCUAGUGGGCGAGAACCAUGUGGUGAAAGUGGCCGACUUUGGUUUAAGUAGACUGAUGACUGGAGAUACCUACACUGCUCAUGCUGGAGCCAAAUUUCCUAUUAAAUGGACA	0.119
UAGUGAAAUUCUCUAGCACUGUAUUUAGAUUCUGGAUUUUUAUAAUUCAUGCUUAAUGUAUUAGACAUUUUUAGCCCAUAAUUAAAACAUUGUUGCUUUUACACAGGUGUAGUUUGGUGC	39.2
AUAAUGCAGGAAUACCAGUUAGAACAGAAAGAUGUGAAUUCUCUUCUUAAAUAUUUUGUUACUUUUGAAGUCGAAAUCUUCCCUCCUGAAGACAAGAAAGCAAUACGAUCAAAAUGAAGA	0.361
GGAAGUGCUGCAUGGCAGGAACACUUGAAACAGAACAAAACUCUAGUCCACGUUAAACGCUGGUUUGGCUUUCUUGAGGCCCAGCAGGCCUUCCGCUCAGUUGGCACCAAGUGGGAUGUU	0.3
UGAAUAUUAUACUUCUUUAUUCACAGUAUCUGUGUCUCCUGCACCCUUUGGUGUUGCAAUUUUAGAUAUGUGAAAGUAGAUGUUAGCAGGGUUCUCUCCCUAUUUAAAAAAAAUACAUUA	3.04
CAAAACUCCGUACAUUGCUAUUUUGCCACACUGCAACACCUUACAGAUGUGGAAGAUGUGAAAUUUGUCAUCAAUUAUGACUACCCUAACUCCUCAGAGGAUUAUAUUCAUCGAAUUGGA	0.112
AUUCAGAAUCAUUUUGUGGACGAAUAUGAUCCAACAAUAGAGGAUUCCUACAGGAAGCAAGUAGUAAUUGAUGGAGAAACCUGUCUCUUGGAUAUUCUCGACACAGCAGGUCAAGAGGAG	1
CCUGUUUUUGCCUCUCUCUGGCUUCUGGAAAGUGCUCCUUCAUGACAUCCCCUAUCUGCAUAGUUCAAGCACCCCAAAUCUGCCCCUUCCUCCUUAAAGACUGGUAGAUGGGAUCAGCUC	0.569

Block 5
Target: CCNA1, cyclin fold, Cln2 fusion (human)
Technique: yeast growth competition, sequencing
Sample: yeast
Setting: weak parent motif
Baseline: not given
Direction: higher = stronger binding
Starting sequence: REPIN1 docking peptide (human); QSFRGWVALVLHL; partner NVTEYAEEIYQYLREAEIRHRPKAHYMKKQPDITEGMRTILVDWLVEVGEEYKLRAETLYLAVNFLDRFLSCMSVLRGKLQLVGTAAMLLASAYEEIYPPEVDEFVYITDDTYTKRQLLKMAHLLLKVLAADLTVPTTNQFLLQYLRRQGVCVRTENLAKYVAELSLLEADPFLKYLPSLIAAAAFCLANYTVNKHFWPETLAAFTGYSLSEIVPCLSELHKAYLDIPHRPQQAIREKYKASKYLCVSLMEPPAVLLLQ
Substitution	normalised enrichment score
QAFRGWVALVLHL [S2A]	-0.368
QSFRGWVALVLHA [L13A]	0.273
ASFRGWVALVLHL [Q1A]	-0.469
QSFRGWVALALHL [V10A]	-0.679
QSFRGWVALVAHL [L11A]	-0.0897
QSFAGWVALVLHL [R4A]	-0.532

Some of these lines once more (block 2):
Oligonucleotide	E-score
AGATAACG	0.139
ACTAGTAA	0.288
AGCAGCAC	-0.286
CGATCCGA	-0.223
CGGCGGCC	-0.323
AATTCACT	0.201
